# Experimental data from different studies.
# Parts stem from different laboratories: compare values within a part only. Substitutions count along the parent as printed.

# Block 1
# Target: Interferon regulatory factor 7, full length, phosphomimetic (IRF7, Homo sapiens, UniProt Q92985, residues 1-503, S471D/S472D/S475D/S476D/S477D/S483D/S484D/S487D)
# Technique: protein-binding microarray
# Molecule type: double-stranded DNA, one strand shown
# Sample: in vitro
# Concentration: 2200 nM top
# Notes: 60-bp whole probe
# With: salmon DNA 0.4 mg/ml
# Reference: random background probes
# Direction: higher = stronger binding
# All sequences stand within: GCCTAGCAC … GTCTTGATTCGCTTGACGCTGCTG
# Target sequence (chain): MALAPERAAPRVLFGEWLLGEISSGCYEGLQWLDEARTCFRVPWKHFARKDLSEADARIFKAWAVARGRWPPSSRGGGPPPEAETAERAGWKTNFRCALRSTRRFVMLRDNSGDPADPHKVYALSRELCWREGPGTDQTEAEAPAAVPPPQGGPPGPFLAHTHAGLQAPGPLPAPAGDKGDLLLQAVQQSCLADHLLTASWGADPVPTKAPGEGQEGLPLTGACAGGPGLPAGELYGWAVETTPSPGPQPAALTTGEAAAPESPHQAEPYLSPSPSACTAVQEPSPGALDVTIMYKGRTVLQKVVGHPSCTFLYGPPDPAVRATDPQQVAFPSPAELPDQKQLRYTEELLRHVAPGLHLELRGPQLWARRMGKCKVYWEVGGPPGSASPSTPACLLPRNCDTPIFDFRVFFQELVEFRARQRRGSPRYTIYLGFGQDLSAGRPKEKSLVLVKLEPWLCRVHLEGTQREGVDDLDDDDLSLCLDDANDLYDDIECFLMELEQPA
Strand,fitted relative affinity [z-score]
TTAGATCTCAGTCTCGATAAGTGCTAG,0.113
TAAGGTTTCCAATCAGCCCCGTGCTAG,1.31
GACGGTTTCGGGACTGGGGAAGTGCTA,3.82
TTAGGTCTCCTTATCCTTCAGTGCTAG,1.15
GTAGAACTGAGACTGGATTAGTGCTAG,-0.387
TTAGGACTGGACACTGGTTTAGTGCTA,-0.467
GACAGTTTCGGACTGGGGACGTGCTAG,4.5
TCACTTATCCCTAATCTCACTGTGCTA,1.85
TTATATTTCGGGTATCGATTAGTGCTA,2.65
TTAGGACTGGACACTGGGTTGGTGCTA,-0.832
GACGATACCAGTCTCGAGACGTGCTAG,0.43
AGGGTCTTCAGGTTCTCCCCGTGCTAG,0.0749
TTATGTATCGGTTTCGGTTAGTGCTAG,7.32

# Block 2
# Target: ABI1, truncated, D143A, DHFR fusion (Arabidopsis thaliana, UniProt P49597)
# Technique: DHFR PCA, dose-response
# Sample: yeast
# Notes: Hill fit, mean, not affinity
# With: (+)-ABA, dose series
# Direction: lower = more sensitive
# Starting sequence: PYL1, truncated, DHFR fusion (Arabidopsis thaliana, UniProt Q8VZS8); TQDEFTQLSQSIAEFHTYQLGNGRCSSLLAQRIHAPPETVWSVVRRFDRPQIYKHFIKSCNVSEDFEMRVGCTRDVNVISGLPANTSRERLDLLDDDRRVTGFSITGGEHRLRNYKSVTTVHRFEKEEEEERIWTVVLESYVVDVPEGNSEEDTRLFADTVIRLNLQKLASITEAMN
Change,ABA EC50
I52K,6.17 µM
N114S,41.7 µM
T160W,18.3 µM
L164R,1.67 µM
V121M,127 µM
F5Q,3.12 µM
G102C,75.2 µM
V62H,60.4 µM
Q167H,4.41 µM
H122A,186 µM
L164K,9.6 µM
R111Y,89.5 µM

# Block 3
# Target: UBE2O UBC core domain (UniProt Q9C0C9)
# Technique: yeast two-hybrid
# Sample: yeast
# Notes: mostly zero background
# Reference: not given
# Direction: higher = stronger interaction
# B1: RNF103 RING domain (UniProt O00237); chain WPADMLHCTECVVCLENFENGCLLMGLPCGHVFHQNCIVMWLAGGRHCCPVCRWPSYKKKQPY
# B2: ZMYND11 RING domain (UniProt Q15326); chain DEIDWETENHDWYCFECHLPGEVLICDLCFRVYHSKCLSDEFRLRDSSSPWQCPVCRSIKKKNTNKQEM
# B3: RUFY1 RING domain (UniProt Q96T51); chain QALKGHAWLKDDEATHCRQCEKEFSISRRKHHCRNCGHIFCNTCSSNELALPSYPKPVRVCDSCHTLLLQRCSSTAS
# B4: BFAR RING domain (UniProt Q9NZS9); chain GPQISVSEFSCHCCYDILVNPTTLNCGHSFCRHCLALWWASSKKTECPECREKWEGFPKVS
# B5: ZNRF4 RING domain (UniProt Q8WWF5); chain VRTFTWHNDLCAICLDEYEEGDQLKILPCSHTYHCKCIDPWFSQAPRRSCPVCKQSVAATEDSF
# B6: HLTF RING domain (UniProt Q14527); chain LILSSGSDEECAICLDSLTVPVITHCAHVFCKPCICQVIQNEQPHAKCPLCRNDIHEDNLLE
# B7: TRIM41 RING domain (UniProt Q8WV44); chain PVQTLQEEAVCAICLDYFTDPVSIGCGHNFCRVCVTQLWGGEDEEDRDELDREEEEEDGEEE
# Target sequence (chain): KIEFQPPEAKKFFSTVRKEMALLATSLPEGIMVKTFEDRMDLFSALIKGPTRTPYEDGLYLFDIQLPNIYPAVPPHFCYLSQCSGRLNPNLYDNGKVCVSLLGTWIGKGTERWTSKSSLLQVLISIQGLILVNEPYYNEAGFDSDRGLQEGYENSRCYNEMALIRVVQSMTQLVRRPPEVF
Molecule,lacZ reporter activity
ASPKIFQKTKCSICNSALELPSVHFLCGHSFHQHCFESYSESDADCPTCLPENRKVMDMI (VPS11 RING domain (UniProt Q9H270)),0
ASEEEFQFLRCQQCQAEAKCPKLLPCLHTLCSGCLEASGMQCPICQAPWPLGADTP (PML RING domain (UniProt P29590)),0
B1 (RNF103 RING domain),0
B2 (ZMYND11 RING domain),0
B3 (RUFY1 RING domain),0
B4 (BFAR RING domain),0
B5 (ZNRF4 RING domain),0
B6 (HLTF RING domain),0
B7 (TRIM41 RING domain),0

# Block 4
# Target: Histone acetyltransferase KAT6A, winged helix 2, GST fusion (KAT6A, Homo sapiens, UniProt Q92794, residues 85-181)
# Technique: protein binding microarray
# Molecule type: double-stranded DNA, one strand shown
# Sample: in vitro
# Concentration: not given
# Notes: 8-mer, flanks averaged, mean of 2 arrays, mostly near background
# Reference: not given
# Direction: higher = stronger binding
# Residues (chain): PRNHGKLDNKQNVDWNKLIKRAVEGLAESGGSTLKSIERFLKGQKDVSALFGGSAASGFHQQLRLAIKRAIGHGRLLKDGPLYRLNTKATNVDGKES
Strand,E-score
GGAATGTA,0.0308
GGACCTCC,0.15
CACGTACC,-0.00443
TAGATTCA,0.161
ACTCAACC,0.0421
CCTGCCAA,-0.116
GCATTCAC,0.0846
CTGACACC,0.0415
CCTTGACA,-0.0357
AGACAGAT,0.0323
CGGACTTC,-0.14
CCAGCCAC,0.0845
GCGGGTCA,0.172
CCTCGCAC,0.0783
AGGGTCTG,-0.206
ACCAGTGC,0.0182
GTGGATCA,0.0127
ACCGCTAG,-0.141
GAAGCAGC,0.14
CTGCAGGC,-0.0127
GAGTTCCA,-0.067
GATGTTTA,-0.0803
AAAGCGCC,0.0261
CCAACTCC,0.0325
AAGCGAGC,0.183

# Block 5
# Target: CCNF, cyclin fold, Cln2 fusion (human)
# Technique: yeast growth competition, sequencing
# Sample: yeast
# Notes: strong parent motif
# Reference: not given
# Direction: higher = stronger binding
# Starting sequence: ORC1 docking peptide (human); PRARKRLELGNLG
Change,normalised enrichment score
E8Q,3.08
A3H,1.49
R4Y,1.24
R6T,0.773
G13N,3.31
R2T,4.67
L12S,3.45
R6V,0.847
N11W,3.89
P1Y,4.08
R4V,1.62

# Block 6
# Target: RNA binding protein fox-1 homolog 2, RRM domain, GST-SBP tag (RBFOX2, Homo sapiens, UniProt O43251-10, residues 100-194)
# Technique: RNA Bind-n-Seq
# Molecule type: RNA
# Sample: in vitro
# Concentration: 365 nM
# Notes: natural RNA segment, single round, ends assumed
# Reference: no-protein control
# Direction: higher = stronger binding
# All sequences stand within: GGGAGUUCUACAGUCCGACGAUC … UGGAAUUCUCGGGUGCCAA
# Construct (chain): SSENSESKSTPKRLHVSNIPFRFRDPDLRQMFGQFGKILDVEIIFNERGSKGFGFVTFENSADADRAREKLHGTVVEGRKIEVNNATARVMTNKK
Strand,RBNS enrichment (R)
AUGGCUCUUGGCAGUUUAAAUUUAGUAAUUUUAAUUUAGUGAACAGAAUUGAGAAGAACGUGCCAAAUGAGAAUCAAUUAGGUGGAUUUUUGGCUGUCAUUUCAAAAGUG,0.432
GGCCUCUGGGAAGAGGAGAAAUGUAGCCUGAGCUGGGGCUGGAGGCUGGUCACCGCAUAUCCUUGCCUUCCUUUGGAAUUCUCUUAAGGGAAAGGAAUUUUGCACUUAGC,0.951
GUGUGAGUGAGGGUAUGUGCACCUAAGUGUGUACAUGUGUGUAUGUUGUGAAAGUGUCUGUGCACAUGAAUGUUUGUGUGUGUGUGAACUCUUUCUUACUGCUGGAAGUC,6.32
UUCCCUCCCAGCUUCAAGCCGAACACACGCUGUGGCCACCAAGACCUGGGGCGACAGGAGAACCGGUCCUCUCUCUGACGGGGUGGCAUUUGGCCUUGAACAAAACCAAG,0.41
AGGCCCUUUUGCAAGGCUUAGGGUGUGGCCAGCCCUGAAAGCUACUUGGACACAGGUUUCAGCUGGCCCCAGCCCAGAAGUGACCCCCAGAAAGGGAGGGCCACCGCUUU,0.773
CGCCCCCUGUGGUCAAGCCUCUGGUGGGCGUCUUGCCCAGUUCCUGAUGGUUCAAGGGGAGGGGGGAUGUUGGCCAGGCCCCAGGGCACAGCCCUGACACAGGUGUGGCU,0.254
AAGGAAAUUCUGUCUGGUAGGUGCAAAGGGCUUCAUGGAUUUGGAAACCUGGAGGCAGGAACAUAGCAGAUUUAAGGGGUACCCAGCUGUGGAAGGUCAUUCCUGAGAAG,0.529
AAAAUAUGCAUGUUGUCUCUGAAAAGUAGGCAUUGAAACAGACUUUUUUGUAGUCAGUGUUAAUAAAACGGAUCCUGUUUGGGCCUUCAUUGUUAAGGUGGACUUCAUGG,2.09
UAUUGUCAAUAUUUGAAGAAAAUCUUUUCUGAGCGCACCUAGGUGGCUUCUGACUUUGAUUUUCUGGCAAAACAUUGACUUUCCAUAGUGUUAGGGGCGGUGGUGGAGGU,0.545
GCUCCUGCCGGGUUCCUGCUCAGGCUGGAAUUGGGAAAAUAUGCAGGUGACAUUUGUUCAUUCUCUAAUCCCAUCCUCUCACCCAUCCAUUUCCUCACUCAGUGGAGAUU,0.191
UUCACGGAUACACCAGCAGUGUUGGGAUAGGAGCAGCCAGGCCUCAGCAGGAGGGACCAGGGCCGACAGGAACACCAGAGGUUCUUGGCUGUUCCUCUAUCAGCGAAGAC,0.644
GUGAUAACACAAAUUUUAUCGCAAUGGUUAUUAUUUAAUUUGUGGCCACACACUGUGGUUAUCUUUUGUUGUGGUUGUUUCUGAGAAAAUGUUCUUGGAUAUGUAAGUGC,0.648

# Excerpt of the above (block 2):
Change,ABA EC50
V62H,60.4 µM
N114S,41.7 µM
R111Y,89.5 µM
G102C,75.2 µM
L164R,1.67 µM
V121M,127 µM
